Measurements gathered from unrelated publications.
Parts stem from different laboratories: compare values within a part only.
UniProt Q9UQB9, sequence (whole entry, looked up): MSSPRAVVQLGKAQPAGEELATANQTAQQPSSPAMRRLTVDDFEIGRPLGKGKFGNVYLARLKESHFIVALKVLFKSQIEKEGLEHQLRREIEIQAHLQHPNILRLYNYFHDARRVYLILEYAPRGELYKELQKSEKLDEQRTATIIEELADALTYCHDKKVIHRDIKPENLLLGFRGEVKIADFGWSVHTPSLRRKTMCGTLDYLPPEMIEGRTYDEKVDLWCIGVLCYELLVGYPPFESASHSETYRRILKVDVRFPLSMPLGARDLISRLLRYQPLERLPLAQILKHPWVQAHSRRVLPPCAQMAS
UniProt Q02750, sequence (whole entry, looked up): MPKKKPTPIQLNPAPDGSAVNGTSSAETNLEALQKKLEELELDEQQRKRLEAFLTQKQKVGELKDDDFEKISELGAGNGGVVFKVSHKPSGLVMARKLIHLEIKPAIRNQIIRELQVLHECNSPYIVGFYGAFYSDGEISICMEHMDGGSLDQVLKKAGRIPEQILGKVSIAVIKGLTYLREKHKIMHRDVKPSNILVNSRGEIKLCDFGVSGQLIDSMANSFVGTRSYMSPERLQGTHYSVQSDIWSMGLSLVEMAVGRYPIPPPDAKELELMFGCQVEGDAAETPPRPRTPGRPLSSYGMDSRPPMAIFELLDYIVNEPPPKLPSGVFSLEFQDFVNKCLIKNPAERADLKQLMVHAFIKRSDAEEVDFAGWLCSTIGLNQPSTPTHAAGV
UniProt Q6P3R8, sequence (whole entry, looked up): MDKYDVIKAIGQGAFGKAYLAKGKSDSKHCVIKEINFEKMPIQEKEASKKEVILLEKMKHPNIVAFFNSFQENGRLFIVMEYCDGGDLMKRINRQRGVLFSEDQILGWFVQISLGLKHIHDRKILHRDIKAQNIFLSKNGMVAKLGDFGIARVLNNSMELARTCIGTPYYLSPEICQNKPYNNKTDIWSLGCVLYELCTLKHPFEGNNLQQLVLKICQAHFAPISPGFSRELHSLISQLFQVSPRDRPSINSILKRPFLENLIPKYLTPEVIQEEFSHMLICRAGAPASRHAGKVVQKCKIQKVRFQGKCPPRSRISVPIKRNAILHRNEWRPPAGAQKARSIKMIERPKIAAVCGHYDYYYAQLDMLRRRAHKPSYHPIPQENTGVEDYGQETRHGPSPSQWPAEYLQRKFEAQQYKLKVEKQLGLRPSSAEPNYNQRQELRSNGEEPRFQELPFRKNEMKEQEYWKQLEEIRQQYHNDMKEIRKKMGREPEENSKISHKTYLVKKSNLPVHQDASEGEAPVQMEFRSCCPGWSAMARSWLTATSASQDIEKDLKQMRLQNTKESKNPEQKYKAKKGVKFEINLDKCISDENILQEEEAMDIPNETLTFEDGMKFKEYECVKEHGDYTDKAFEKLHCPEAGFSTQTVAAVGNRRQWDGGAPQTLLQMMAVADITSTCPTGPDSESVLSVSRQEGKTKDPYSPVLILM
UniProt Q8N568, sequence (whole entry, looked up): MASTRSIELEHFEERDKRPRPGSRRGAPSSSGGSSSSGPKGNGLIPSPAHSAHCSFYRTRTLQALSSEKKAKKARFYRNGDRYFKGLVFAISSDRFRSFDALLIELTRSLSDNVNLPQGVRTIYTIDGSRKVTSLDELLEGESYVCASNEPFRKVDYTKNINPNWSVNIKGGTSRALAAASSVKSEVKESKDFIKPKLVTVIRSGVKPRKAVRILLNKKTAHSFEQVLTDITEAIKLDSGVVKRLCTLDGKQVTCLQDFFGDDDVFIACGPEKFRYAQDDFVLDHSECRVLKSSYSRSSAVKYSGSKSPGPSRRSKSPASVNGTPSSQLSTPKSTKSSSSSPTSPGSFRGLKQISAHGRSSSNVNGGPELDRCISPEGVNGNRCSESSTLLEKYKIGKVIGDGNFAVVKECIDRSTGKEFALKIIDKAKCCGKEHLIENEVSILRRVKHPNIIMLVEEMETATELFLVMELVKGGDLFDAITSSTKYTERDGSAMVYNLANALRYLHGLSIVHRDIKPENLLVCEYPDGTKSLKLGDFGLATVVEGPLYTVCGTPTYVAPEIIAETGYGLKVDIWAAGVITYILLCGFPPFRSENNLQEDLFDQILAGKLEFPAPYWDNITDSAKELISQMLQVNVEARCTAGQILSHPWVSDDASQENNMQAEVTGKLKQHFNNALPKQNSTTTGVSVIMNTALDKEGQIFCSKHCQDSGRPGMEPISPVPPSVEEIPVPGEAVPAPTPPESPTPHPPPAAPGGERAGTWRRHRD
UniProt P35968, sequence (whole entry, looked up): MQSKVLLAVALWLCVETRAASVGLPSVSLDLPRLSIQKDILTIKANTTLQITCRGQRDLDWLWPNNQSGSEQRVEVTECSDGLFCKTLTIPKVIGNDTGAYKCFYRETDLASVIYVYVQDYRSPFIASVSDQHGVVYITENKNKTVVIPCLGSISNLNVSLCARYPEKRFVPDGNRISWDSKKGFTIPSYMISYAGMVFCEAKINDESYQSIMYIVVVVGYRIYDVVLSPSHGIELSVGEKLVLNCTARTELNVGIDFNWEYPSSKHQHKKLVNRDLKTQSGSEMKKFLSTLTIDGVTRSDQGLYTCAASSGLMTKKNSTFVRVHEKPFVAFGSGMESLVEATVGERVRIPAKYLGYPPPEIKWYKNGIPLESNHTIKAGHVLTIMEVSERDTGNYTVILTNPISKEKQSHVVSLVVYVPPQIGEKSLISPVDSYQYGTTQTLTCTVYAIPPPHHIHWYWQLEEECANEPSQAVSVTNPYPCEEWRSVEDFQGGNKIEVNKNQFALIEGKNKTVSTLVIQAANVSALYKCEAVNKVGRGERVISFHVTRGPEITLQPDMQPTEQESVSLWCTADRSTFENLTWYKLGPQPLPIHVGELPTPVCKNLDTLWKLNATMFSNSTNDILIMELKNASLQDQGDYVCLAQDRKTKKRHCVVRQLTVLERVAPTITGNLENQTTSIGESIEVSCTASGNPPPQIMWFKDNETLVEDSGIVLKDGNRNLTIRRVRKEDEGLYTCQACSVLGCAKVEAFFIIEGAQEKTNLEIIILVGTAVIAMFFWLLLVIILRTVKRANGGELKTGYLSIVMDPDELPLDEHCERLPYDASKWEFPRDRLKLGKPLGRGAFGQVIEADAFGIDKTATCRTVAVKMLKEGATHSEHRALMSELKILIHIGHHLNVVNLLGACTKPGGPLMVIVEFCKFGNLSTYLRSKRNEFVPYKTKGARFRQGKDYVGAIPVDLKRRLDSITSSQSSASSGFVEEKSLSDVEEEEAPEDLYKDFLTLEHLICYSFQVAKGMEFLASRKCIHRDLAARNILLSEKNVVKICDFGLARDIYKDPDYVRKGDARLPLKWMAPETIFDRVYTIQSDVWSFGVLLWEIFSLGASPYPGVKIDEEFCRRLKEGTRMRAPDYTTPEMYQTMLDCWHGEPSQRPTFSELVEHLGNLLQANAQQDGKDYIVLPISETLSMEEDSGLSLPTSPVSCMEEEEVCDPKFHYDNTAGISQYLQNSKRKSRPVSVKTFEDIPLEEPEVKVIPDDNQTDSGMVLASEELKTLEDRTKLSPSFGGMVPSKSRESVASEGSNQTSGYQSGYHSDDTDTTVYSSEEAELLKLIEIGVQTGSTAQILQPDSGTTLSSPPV
UniProt Q13237, sequence (whole entry, looked up): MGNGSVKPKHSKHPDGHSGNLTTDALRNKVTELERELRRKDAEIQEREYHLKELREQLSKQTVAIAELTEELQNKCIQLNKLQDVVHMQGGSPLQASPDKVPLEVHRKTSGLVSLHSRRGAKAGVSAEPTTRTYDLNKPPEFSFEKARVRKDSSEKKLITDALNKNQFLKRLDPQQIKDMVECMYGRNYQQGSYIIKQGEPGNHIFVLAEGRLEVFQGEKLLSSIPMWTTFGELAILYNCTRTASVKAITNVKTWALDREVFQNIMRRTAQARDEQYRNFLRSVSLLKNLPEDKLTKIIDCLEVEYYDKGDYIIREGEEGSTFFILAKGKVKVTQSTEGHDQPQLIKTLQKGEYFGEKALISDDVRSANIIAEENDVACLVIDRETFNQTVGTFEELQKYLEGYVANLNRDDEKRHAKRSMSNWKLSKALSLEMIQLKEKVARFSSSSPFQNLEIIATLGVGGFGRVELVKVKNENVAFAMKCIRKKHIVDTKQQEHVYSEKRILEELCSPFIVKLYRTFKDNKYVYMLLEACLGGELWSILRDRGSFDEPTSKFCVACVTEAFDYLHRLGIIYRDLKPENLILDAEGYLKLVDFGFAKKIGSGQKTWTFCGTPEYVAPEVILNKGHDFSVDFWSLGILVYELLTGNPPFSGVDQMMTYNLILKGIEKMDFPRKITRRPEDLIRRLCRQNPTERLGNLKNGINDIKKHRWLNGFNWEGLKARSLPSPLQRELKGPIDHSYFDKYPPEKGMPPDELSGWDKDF

Block 1
Structure (SMILES): COc1ccc2[nH]c3c4[nH]c5ccc(OC)cc5c4c4c(c3c2c1)C(=O)NC4=O
Technique: competitive binding panel
Concentration: 1 µM
Relative to: vehicle
target	remaining binding [%]
Receptor-interacting serine/threonine-protein kinase 2 (RIPK2, Homo sapiens, UniProt O43353)	60
Dual specificity tyrosine-phosphorylation-regulated kinase 1B (DYRK1B, Homo sapiens, UniProt Q9Y463)	79
Phosphatidylinositol 4-phosphate 5-kinase type-1 alpha (PIP5K1A, Homo sapiens, UniProt Q99755)	100

Block 2
SMILES: O=C1CCc2cc(Nc3cc(OC4CCOCC4)c([N+](=O)[O-])cc3Cl)ccc2N1
Observed: cell-free assay
Technique: competition with immobilised ligand
Concentration: 1 µM
target	remaining binding [%]
Hepatocyte growth factor receptor (MET, Homo sapiens, UniProt P08581, M1250T)	93
Serine/threonine-protein kinase PLK1 (PLK1, Homo sapiens, UniProt P53350)	100
Serine/threonine-protein kinase Nek5 (NEK5, Homo sapiens, UniProt Q6P3R8)	96
Phosphatidylinositol 4,5-bisphosphate 3-kinase catalytic subunit alpha isoform (PIK3CA, Homo sapiens, UniProt P42336, Q546K)	70
Aurora kinase C (AURKC, Homo sapiens, UniProt Q9UQB9)	100
Ribosomal protein S6 kinase alpha-2, N-terminal kinase domain (RPS6KA2, Homo sapiens, UniProt Q15349)	100

Block 3
Compound: Nc1[nH]nc2nnc(-c3c(-c4ccccc4)nn4ccccc34)cc12
Observed: enzyme activity
Action: inhibitor
Concentration: 0.5 µM
Relative to: control
target	remaining activity
Calcium/calmodulin-dependent protein kinase type 1B (PNCK, Homo sapiens, UniProt Q6P2M8)	99.6%
Serine/threonine-protein kinase DCLK2 (DCLK2, Homo sapiens, UniProt Q8N568)	100%
Cyclin-dependent kinase 1, with cyclin A (CDK1, Homo sapiens, UniProt P06493)	101%
Ribosomal protein S6 kinase alpha-4 (RPS6KA4, Homo sapiens, UniProt O75676)	94.7%
cGMP-dependent protein kinase 2 (PRKG2, Homo sapiens, UniProt Q13237)	104%
Serine/threonine-protein kinase PAK 3 (PAK3, Homo sapiens, UniProt O75914)	100%
Vascular endothelial growth factor receptor 2 (KDR, Homo sapiens, UniProt P35968)	101%
Hepatocyte growth factor receptor (MET, Homo sapiens, UniProt P08581)	95%
Dual specificity mitogen-activated protein kinase kinase 1 (MAP2K1, Homo sapiens, UniProt Q02750)	94.3%
Tyrosine-protein kinase TXK (TXK, Homo sapiens, UniProt P42681)	88.8%
G protein-coupled receptor kinase 4 (GRK4, Homo sapiens, UniProt P32298)	103%
Serine/threonine-protein kinase MRCK beta (CDC42BPB, Homo sapiens, UniProt Q9Y5S2)	93.4%
MAP/microtubule affinity-regulating kinase 4 (MARK4, Homo sapiens, UniProt Q96L34)	105%

Block 4
SMILES: CC(C)n1cnc(-c2ccc(F)cc2)c1-c1ncc(C(=O)Nc2ccc(N3CCN(C)CC3)cc2)[nH]1
Technique: phase 2a trial
Host: idiopathic pulmonary fibrosis patients
dose	setting	patients with cough [%]
60 mg once daily	adverse event grade 5	0
30 mg once daily	adverse event grade 3	0
30 mg once daily	adverse event grade 5	0
30 mg once daily	adverse event grade 4	0
dose not given	adverse event grade 3, all dose arms pooled	0
